Measurements pooled from the literature.
Parts stem from different laboratories: compare values within a part only.
Chain of UniProt Q9BX84 (whole entry, looked up): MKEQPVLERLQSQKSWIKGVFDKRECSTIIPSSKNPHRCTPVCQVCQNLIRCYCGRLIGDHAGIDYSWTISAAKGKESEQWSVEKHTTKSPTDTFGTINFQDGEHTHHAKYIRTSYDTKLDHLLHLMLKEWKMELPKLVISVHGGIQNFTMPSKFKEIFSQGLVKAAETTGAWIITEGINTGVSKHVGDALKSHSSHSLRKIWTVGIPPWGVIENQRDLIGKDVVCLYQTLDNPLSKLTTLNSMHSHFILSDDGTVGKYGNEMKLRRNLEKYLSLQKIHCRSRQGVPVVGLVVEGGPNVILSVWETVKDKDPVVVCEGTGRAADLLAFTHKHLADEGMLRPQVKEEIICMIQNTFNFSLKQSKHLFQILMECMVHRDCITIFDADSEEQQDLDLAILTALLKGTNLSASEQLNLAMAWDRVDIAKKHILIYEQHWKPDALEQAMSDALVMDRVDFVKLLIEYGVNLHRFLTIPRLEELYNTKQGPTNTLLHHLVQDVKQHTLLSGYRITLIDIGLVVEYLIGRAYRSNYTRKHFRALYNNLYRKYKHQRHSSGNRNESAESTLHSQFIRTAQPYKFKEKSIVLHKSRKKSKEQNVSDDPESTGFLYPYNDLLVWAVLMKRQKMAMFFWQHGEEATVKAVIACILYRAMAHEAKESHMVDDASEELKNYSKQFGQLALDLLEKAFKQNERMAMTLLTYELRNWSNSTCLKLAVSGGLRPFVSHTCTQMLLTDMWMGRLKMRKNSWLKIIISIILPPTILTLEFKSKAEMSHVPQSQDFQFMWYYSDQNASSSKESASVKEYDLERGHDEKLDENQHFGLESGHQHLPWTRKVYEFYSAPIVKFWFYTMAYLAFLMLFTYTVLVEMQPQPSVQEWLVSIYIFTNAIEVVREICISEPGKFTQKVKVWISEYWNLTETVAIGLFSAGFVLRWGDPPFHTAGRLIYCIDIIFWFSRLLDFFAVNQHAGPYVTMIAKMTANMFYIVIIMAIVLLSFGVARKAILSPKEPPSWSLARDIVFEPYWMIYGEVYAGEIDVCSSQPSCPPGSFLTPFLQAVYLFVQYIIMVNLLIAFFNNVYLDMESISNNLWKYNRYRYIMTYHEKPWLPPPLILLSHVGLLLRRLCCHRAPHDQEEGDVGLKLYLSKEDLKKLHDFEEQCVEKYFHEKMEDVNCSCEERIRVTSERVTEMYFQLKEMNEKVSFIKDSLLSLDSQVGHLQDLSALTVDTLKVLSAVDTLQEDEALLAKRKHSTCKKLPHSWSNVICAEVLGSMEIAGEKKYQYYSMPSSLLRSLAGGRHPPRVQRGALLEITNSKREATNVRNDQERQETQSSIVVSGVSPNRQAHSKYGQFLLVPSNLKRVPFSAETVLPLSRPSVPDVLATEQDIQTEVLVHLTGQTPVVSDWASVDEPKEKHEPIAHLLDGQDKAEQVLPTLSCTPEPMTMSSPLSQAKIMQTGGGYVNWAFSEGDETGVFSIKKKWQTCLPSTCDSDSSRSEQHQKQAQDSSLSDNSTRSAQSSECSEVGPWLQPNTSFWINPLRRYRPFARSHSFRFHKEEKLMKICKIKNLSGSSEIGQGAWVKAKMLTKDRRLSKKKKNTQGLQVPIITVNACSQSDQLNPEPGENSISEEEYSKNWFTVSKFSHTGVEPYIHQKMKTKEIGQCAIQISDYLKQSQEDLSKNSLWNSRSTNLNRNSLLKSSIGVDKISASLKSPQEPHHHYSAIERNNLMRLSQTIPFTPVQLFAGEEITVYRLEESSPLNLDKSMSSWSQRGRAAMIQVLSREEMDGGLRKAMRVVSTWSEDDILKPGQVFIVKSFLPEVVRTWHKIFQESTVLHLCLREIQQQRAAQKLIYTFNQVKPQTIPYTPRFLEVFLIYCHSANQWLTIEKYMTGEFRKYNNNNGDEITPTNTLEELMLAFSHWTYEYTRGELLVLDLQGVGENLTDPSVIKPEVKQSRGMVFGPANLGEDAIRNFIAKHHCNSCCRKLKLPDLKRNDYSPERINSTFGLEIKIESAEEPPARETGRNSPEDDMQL
Chain of UniProt Q99640 (whole entry, looked up): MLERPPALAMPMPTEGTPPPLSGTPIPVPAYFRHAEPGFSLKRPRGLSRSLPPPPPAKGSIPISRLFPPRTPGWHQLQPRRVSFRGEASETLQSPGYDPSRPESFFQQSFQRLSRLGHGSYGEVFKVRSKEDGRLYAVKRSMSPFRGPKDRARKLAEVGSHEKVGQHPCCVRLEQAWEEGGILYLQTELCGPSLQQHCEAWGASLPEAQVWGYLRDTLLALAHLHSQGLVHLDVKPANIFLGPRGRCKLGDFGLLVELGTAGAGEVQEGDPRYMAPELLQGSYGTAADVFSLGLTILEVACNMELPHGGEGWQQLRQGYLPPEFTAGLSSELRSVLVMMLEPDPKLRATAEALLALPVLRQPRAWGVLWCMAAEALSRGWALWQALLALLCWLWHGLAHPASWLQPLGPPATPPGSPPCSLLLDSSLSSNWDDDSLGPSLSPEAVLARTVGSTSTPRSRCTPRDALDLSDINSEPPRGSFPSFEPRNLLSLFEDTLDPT
Chain of UniProt Q8IU85 (whole entry, looked up): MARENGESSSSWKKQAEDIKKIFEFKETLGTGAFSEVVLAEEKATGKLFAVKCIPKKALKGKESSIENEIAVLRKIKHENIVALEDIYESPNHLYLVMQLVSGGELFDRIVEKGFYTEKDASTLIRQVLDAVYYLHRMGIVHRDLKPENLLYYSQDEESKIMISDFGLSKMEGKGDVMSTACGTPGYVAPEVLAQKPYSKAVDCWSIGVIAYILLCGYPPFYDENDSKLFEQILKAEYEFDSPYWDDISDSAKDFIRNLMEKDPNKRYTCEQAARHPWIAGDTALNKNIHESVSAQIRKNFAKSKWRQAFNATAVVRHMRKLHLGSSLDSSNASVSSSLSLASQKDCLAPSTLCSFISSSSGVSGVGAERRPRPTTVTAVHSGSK
Chain of UniProt Q8IVH8 (whole entry, looked up): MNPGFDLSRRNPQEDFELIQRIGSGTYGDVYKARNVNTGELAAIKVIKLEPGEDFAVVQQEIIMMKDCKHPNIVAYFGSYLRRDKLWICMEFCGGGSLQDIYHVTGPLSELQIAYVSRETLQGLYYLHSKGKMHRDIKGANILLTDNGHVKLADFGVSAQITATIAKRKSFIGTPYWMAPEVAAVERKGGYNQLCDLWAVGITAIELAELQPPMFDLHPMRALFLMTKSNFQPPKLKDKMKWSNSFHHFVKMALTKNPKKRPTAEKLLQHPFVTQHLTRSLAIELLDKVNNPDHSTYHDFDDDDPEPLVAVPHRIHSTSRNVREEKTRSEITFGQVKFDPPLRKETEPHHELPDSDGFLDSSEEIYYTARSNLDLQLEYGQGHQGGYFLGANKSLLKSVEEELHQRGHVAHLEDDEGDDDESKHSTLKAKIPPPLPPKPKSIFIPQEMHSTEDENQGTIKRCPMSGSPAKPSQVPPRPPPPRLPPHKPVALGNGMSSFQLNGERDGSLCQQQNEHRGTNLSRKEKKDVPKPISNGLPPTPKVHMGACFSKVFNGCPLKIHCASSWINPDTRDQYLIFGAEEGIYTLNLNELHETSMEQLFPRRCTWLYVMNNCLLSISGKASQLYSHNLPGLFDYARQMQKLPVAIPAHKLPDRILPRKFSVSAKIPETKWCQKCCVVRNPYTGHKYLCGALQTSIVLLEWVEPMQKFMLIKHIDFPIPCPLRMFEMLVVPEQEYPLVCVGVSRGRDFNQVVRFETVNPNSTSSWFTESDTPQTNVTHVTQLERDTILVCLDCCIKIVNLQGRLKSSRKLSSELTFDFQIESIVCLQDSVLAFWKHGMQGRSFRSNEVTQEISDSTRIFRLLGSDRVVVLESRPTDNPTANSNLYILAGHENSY

Block 1 — observed: enzyme activity; mode: inhibitor; concentration: 0.5 µM; reference: control
Target: Proto-oncogene tyrosine-protein kinase receptor Ret (RET, Homo sapiens, UniProt P07949)
Chain of UniProt P07949 (whole entry, looked up): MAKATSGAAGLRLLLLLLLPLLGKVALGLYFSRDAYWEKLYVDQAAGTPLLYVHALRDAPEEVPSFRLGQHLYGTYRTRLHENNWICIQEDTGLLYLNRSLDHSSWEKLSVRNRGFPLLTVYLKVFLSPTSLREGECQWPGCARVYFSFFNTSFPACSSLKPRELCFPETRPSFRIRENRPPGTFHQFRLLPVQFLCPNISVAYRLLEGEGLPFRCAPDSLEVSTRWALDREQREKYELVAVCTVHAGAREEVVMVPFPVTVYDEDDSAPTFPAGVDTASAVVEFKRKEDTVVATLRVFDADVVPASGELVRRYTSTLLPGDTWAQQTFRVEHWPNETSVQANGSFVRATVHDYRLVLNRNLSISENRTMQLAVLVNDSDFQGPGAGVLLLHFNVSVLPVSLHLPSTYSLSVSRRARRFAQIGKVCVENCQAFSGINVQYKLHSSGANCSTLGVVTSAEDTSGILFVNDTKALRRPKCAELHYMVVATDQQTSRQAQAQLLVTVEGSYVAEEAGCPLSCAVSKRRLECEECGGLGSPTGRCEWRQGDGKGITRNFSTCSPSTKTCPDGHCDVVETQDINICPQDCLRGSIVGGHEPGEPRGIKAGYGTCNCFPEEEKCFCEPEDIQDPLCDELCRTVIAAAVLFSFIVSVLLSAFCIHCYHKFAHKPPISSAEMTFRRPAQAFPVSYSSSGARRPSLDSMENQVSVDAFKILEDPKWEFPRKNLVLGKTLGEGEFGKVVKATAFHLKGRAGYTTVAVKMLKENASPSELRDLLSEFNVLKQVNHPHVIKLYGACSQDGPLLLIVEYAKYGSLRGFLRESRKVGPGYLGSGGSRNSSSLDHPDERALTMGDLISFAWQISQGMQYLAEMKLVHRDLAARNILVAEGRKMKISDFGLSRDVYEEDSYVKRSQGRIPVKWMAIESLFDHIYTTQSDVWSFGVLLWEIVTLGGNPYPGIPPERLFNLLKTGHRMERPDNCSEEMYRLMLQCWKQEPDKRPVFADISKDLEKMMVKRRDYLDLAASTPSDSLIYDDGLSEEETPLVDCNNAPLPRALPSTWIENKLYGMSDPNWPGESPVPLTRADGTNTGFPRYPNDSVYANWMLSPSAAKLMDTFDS
| Compound | remaining activity [%] |
| --- | --- |
| O=C(c1cc2cc(O)ccc2[nH]1)c1cc2cc(O)ccc2[nH]1 | 8.98 |
| Nc1nc(Nc2ccc(S(N)(=O)=O)cc2)nn1C(=S)Nc1c(F)cccc1F | 3.09 |
| CNc1cc2c(Nc3cccc(Br)c3)ncnc2cn1 | 78.5 |
| O=Nc1c(-c2c(O)[nH]c3cc(Br)ccc23)[nH]c2ccccc12 | 0.0602 |
| O=C(c1ccccc1)c1ccc(N2CCOCC2)cc1O | 97.8 |
| Oc1cccc(-c2nc(N3CCOCC3)c3oc4ncccc4c3n2)c1 | 99.8 |
| O=C1NC(=O)/C(=C/c2ccc3c(c2)OC(F)(F)O3)S1 | 102 |
| Cc1ccc(S(=O)(=O)/C=C/C#N)cc1 | 102 |
| NC(=O)c1ccc(-c2nc(-c3ccc4c(c3)OCCO4)c(-c3ccccn3)[nH]2)cc1 | 97 |
| O=C(O)/C=C/c1cc(Br)c(Br)c(Br)c1Br | 76.4 |
| NC(=O)c1cccc(-c2cc(Nc3ccc(OC(F)(F)F)cc3)ncn2)c1 | 105 |
| O=C1NC(=O)c2c1c1c3ccccc3[nH]c1n1cncc21 | 42 |
| Clc1ccc(Nc2nnc(Cc3ccncc3)c3ccccc23)cc1 | 89.1 |
| CCN(CC)CCCCN1c2ccccc2Oc2ccc(Cl)cc21 | 96.3 |
| O=C1Nc2ccc(Br)cc2/C1=C/c1cc2c([nH]1)CCCC2 | 42.9 |
| c1ccc2c(-c3ccncc3)c[nH]c2c1 | 97.3 |
| CC(C)(C)c1nc2c3cc[nH]c(=O)c3c3cc(F)ccc3c2[nH]1 | 18.3 |
| COc1ccc2c(c1)c(C1=C(c3c[nH]c4ccccc34)C(=O)NC1=O)cn2CCCN(C)C | 79.9 |
| CN(C)S(=O)(=O)c1ccc2c(c1)/C(=C/c1cc3c([nH]1)CCCC3)C(=O)N2 | 6.29 |
| CCCCc1c(-c2ccc(OC)cc2)[nH]c2nccnc12 | 56.3 |
| O=C1NC(=O)c2c1c1c3ccccc3[nH]c1c1[nH]c3cc(Br)ccc3c21 | 80.1 |
| COc1cccc(-c2cc(=O)c3ccccc3o2)c1N | 107 |
| O=C1Nc2ccccc2/C1=C\c1c(Cl)[nH]c2ccccc12 | 93 |
| O=C1Cc2c([nH]c3ccc(Br)cc23)-c2ccccc2N1 | 102 |

Block 2 — cell line: A-375; concentration: 100 µM; time: 36 h
| SMILES | viability [%] |
| --- | --- |
| O=C(O)[C@@H]1CSCN1 | 116 |
| CC(=O)SCC(Cc1ccccc1)C(=O)NCC(=O)OCc1ccccc1 (stereo not drawn) | 105 |
| C[C@H]1O[C@H](O[C@H]2[C@H](O)[C@@H](O)[C@@H](O[C@H]3[C@H](O)[C@@H](O)C(O)O[C@@H]3CO)O[C@@H]2CO)[C@H](O)[C@@H](O)[C@@H]1N[C@H]1C=C(CO)[C@@H](O)[C@H](O)[C@H]1O (stereo partly drawn) | 110 |
| C[C@H]1O[C@@H](O[C@H]2CC[C@@]3(C)[C@@H](CC[C@]4(C)[C@@H]3C=C[C@]35OC[C@@]6(CCC(C)(C)C[C@H]63)[C@@H](O)C[C@]54C)[C@]2(C)CO)[C@H](O)[C@@H](O[C@@H]2O[C@H](CO)[C@@H](O)[C@H](O)[C@H]2O)[C@H]1O | 0.91 |
| NC(=O)CC[C@H](N)C(=O)O | 106 |
| CN(C)[C@@H]1C(O)=C(C(N)=O)C(=O)[C@@]2(O)C(O)=C3C(=O)c4c(O)ccc(Cl)c4[C@@](C)(O)[C@H]3C[C@@H]12 | 75.5 |
| N[C@@H](Cc1c[nH]c2ccccc12)C(=O)O | 81 |
| OC[C@H]1O[C@H](OC[C@H]2O[C@H](OC[C@H]3O[C@H](O[C@]4(CO)O[C@H](CO)[C@@H](O)[C@@H]4O)[C@H](O)[C@@H](O)[C@@H]3O)[C@H](O)[C@@H](O)[C@H]2O)[C@H](O)[C@@H](O)[C@H]1O | 46.9 |

Block 3 — method: Phase 2a trial; host: human, idiopathic pulmonary fibrosis
Compound: CC(C)n1cnc(-c2ccc(F)cc2)c1-c1ncc(C(=O)Nc2ccc(N3CCN(C)CC3)cc2)[nH]1
| test | conditions | patients with adverse event |
| --- | --- | --- |
| refers to: hepatobiliary disorders | 30 mg once daily, grade 4 | 0% |
| refers to: blood glucose increased | all compound arms total, grade 2 | 0% |
| refers to: blood creatinine increased | 30 mg once daily, grade 3 | 0% |
| refers to: eosinophilia myalgia syndrome | all compound arms, grade 3 | 0% |
| refers to: hypocalcaemia | 60 mg once daily, grade 3 | 0% |
| refers to: blood urea increased | 30 mg once daily, grade 4 | 0% |
| refers to: blood glucose increased | all compound arms total, grade 3 | 0% |

Block 4 — observed: cell-free assay; method: competition with immobilised ligand; concentration: 1 µM
Structure (SMILES): O=C(O)[C@@H]1[C@@H](Cn2nnc3ccccc3c2=O)CC[C@H]1C(=O)c1ccc(OCCC2CCOCC2)cc1
| target | remaining binding [%] |
| --- | --- |
| Transient receptor potential cation channel subfamily M member 6 (TRPM6, Homo sapiens, UniProt Q9BX84) | 96 |
| Mitogen-activated protein kinase kinase kinase kinase 3 (MAP4K3, Homo sapiens, UniProt Q8IVH8) | 100 |
| Calcium/calmodulin-dependent protein kinase type 1D (CAMK1D, Homo sapiens, UniProt Q8IU85) | 91 |
| Calcium/calmodulin-dependent protein kinase type II subunit alpha (CAMK2A, Homo sapiens, UniProt Q9UQM7) | 100 |
| Cyclin-dependent kinase 13 (CDK13, Homo sapiens, UniProt Q14004) | 92 |
| Membrane-associated tyrosine- and threonine-specific cdc2-inhibitory kinase (PKMYT1, Homo sapiens, UniProt Q99640) | 82 |

Block 5 — host: human; matrix: microsomes or S9; concentration: 2 µM; time: 0.5 h
| SMILES | remaining compound [%] |
| --- | --- |
| COc1c(F)c(F)cc2c(=O)c(C(=O)NCCCN3CCCC3=O)cn(C3CC3)c12 | 66.6 |
| COc1ccccc1CNC(=O)CCCCn1c(=O)c2ccccc2n(Cc2ccccc2C#N)c1=O | 1.96 |
| CCC1=NN2C(=NC(C(=O)O)=CC2c2ccc(O)cc2)N1 (stereo not drawn) | 88.9 |
| Oc1cc(-c2ccc(-c3ccc(Br)cc3)cc2)nn1-c1ccccn1 | > 99 |
| Cn1ncc2cc(-c3ccc(C(C)(C)C)cc3)c(-c3ccc(C(C)(C)C)cc3)cc21 | 7.86 |
| CC1(C)CC(=O)c2c(O)cc(OCC(=O)NCC3CCC(C(=O)O)CC3)cc2O1 (stereo not drawn) | > 100 |
| COC(=O)c1ccc2c(Br)c(O)c(C(=O)OC(C)(C)C)cc2c1 | 54.1 |
| COc1cc(=O)[nH]cc1C(=O)N1CCOCC1c1ccc(F)cc1 (stereo not drawn) | 29.6 |
| CC(C)CN(CC(C)C)C(=O)Cn1nc(C(C)(C)C)ccc1=O | 0.0454 |
